Measured values pooled from the literature.
Lines come from different studies, so protocols differ. ± gives the spread as reported.

| Structure (SMILES) | assay | test system | conditions | how to read | endpoint | value |
| --- | --- | --- | --- | --- | --- | --- |
| CC1OC(OC2C(c3c(O)cc(O)c4c(=O)cc(-c5ccc(O)cc5)oc34)OC(CO)C(O)C2O)C(O)C(O)C1O (stereo not drawn) | – | – | – | – | FRAP, TEAC | 278 ± 13.3 µM TE/mM |
| CC(=O)N[C@@H](CC(N)=O)C(=O)NCC(=O)N[C@@H](CCCNC(=N)N)C(=O)N[C@@H](C)C(N)=O | 1H NMR | sodium phosphate buffer 50 mM | pH 7.4, 55 °C | – | rate constant succinimide to β-Asp | 5.83 h⁻¹ |
| O=C(NCCCCc1ccccc1)n1c(=O)oc2cc(-c3ccc(F)cc3)ccc21 | – | mouse, lung | intraperitoneal, 10 mg/kg, 3 h | – | lung sphingosine level | decreased |
| COc1cc2c(cc1OC)CC(=O)N(C[C@H]1CCCN(CCOc3ccc(F)cc3)C1)CC2 | VTA dopamine neurons | CSDS-susceptible male mice | intraperitoneal, 10 mg/kg | relative to: baseline | firing rate | decreased |
| COc1cc2c(cc1OC)-c1cc3ccc(OC)c(OC)c3c[n+]1CC2 | – | rat, STZ-induced diabetic, serum | oral, 12 mg/kg, day 28 | – | ALT activity | 86.9 ± 2.87 U/L |
| COc1c2c(cc3oc(C)cc(=O)c13)O[C@H](C(C)(C)O[C@@H]1O[C@H](CO)[C@@H](O)[C@H](O)[C@H]1O)C2 | analgesia | mouse | oral, 2 mg/kg, 1.5 h | – | hot plate latency | 11 ± 1.27 s |
| CC(C)c1cnc(-c2cc(Cl)ccc2F)cc1Nc1ccncc1C(=O)NC(CO)CO | SMAD2/3 phosphorylation, flow cytometry | human patients, peripheral monocytes | 150 to 500 mg, 1 to 4 h, single and multiple doses, monotherapy | – | inhibition | 30 to 94% |
| Cc1cc(O)c(C=O)c2c1C(=O)Oc1c(CO)c(O)c3c(c1O2)C(O)OC3=O (stereo not drawn) | – | streptozotocin-diabetic male albino rats, serum | dose not given, 9 weeks | relative to: diabetic control | malondialdehyde level | decreased |
| CC(C)(C)ONc1nc(Nc2ccnc(C(F)(F)F)c2)nc(-c2cccc(C(F)(F)F)n2)n1 | measured: 2-hydroxyglutarate | mouse U-87 MG IDH2 R140Q xenograft, tumour | oral, 18.05 mg/kg, up to 0.5 h | – | 2-HG level | 47.2 ng/mg |
| CN1CCC[C@]1(C)/C=C/S(=O)(=O)NC(=O)Nc1c2c(cc3c1CCC3)CCC2 | IL-1β release, ex vivo whole blood | human, whole blood | oral, 25 mg single dose, 6 h, with: LPS and ATP | – | inhibition | > 90% |
| CC(C)(O)c1ccc(N2Cc3c(ccnc3-c3ccc(F)cc3OCC(F)(F)F)C2=O)cc1 | – | Gaucher disease mouse model, brain | 30 mg/kg, 2 months once daily | relative to: vehicle | glucosylceramide level | 40 ± 3% |
| CC(=O)Nc1ccc(OC(=O)CCC(=O)[O][Pt-2]23([O]C(=O)CCC(=O)Oc4ccc(NC(C)=O)cc4)([NH2+][C@@H]4CCCC[C@H]4[NH2+]2)[O]C(=O)C(=O)[O]3)cc1 | – | BALB/c mouse, 4T1 lung metastasis | dose not given, day 16 | – | lung metastatic nodules | decreased |
| CCCCCCCOC(=O)Cc1c(C)n(C(=O)c2ccc(Cl)cc2)c2ccc(OC)cc12 | hot plate test | BALB/c mice | 50 mg/kg, 90 min | – | latency of nociceptive response | 15.4 ± 0.83 s |
| NC(=O)CC[C@H](N)C(=O)N1CCC[C@H]1C(=O)NCC(=O)NCC(=O)O | diketopiperazine formation, Arrhenius plot, ESI-MS | 1-propanol | 70, 80, 90 °C, 0.5% acetic acid | – | ΔG‡ at 298.15 K | 22 ± 2.63 kcal/mol |
| COc1ccc(C2CC(c3ccc(C)cc3)=Nc3ccccc3S2)cc1OC (stereo not drawn) | – | Wistar rat, STZ-induced diabetes, serum | 10 mg/kg, 28 days | – | ALT (SGPT) | 23.7 ± 2.3 IU/L |
| CC(=O)[O-].O.O.O.O.[Ni+2].[O-]c1ccc(Br)cc1C=NCCN1CCOCC1 | hydroxyl radical scavenging | – | 240 µM | – | inhibition | 55.4% |
| COc1ccc2c(c1)c(CC(=O)OCOC(C)=O)c(C)n2C(=O)c1ccc(Cl)cc1 | hot plate test | BALB/c mice | 50 mg/kg, 0 min | – | latency of nociceptive response | 9.02 ± 0.44 s |
| CC(CCC(=O)NCc1ccc(C(=O)NO)cc1)C1CCC2C3C(O)CC4CC(O)CCC4(C)C3CCC12C (stereo not drawn) | immunoblot | PCK rats, kidney | dose not given | relative to: untreated | acetylated α-tubulin level | increased |
| CC(C)[C@H](NC(=O)CN)C(=O)N[C@@H](CCCCN)C(=O)NCC(=O)N[C@@H](CC(=O)O)C(=O)N[C@@H](CCCCN)C(=O)NCC(=O)N[C@@H](CC(N)=O)C(=O)N1CCC[C@H]1C(=O)NCC(=O)N[C@@H](Cc1c[nH]c2ccccc12)C(=O)N1CCC[C@H]1C(=O)NCC(=O)N[C@@H](C)C(=O)N1CCC[C@H]1C(=O)O | – | bovine aortic endothelial cells, bovine | 100 µg/mL coating, peptide-coated plates | relative to: input cells | cell adhesion | 0.8% |
| CSCCNc1nc(SCCC(F)(F)F)nc2c1ncn2[C@@H]1O[C@H](COP(=O)(O)OP(=O)(O)C(Cl)(Cl)P(=O)(O)O)[C@@H](O)[C@H]1O | ADP-induced platelet aggregation, LTA, >59% aggregation | human patients, platelet-rich plasma | dose not given, 2 h, with: ADP 20 µM | – | patients with high reactivity | 50% |
| CCC[C@@H]1O[C@@H]2C[C@H]3[C@@H]4C[C@H](F)C5=CC(=O)CC[C@]5(C)[C@@]4(F)[C@@H](O)C[C@]3(C)[C@]2(C(=O)CO)O1 | measured: human FGF21 protein | CD-1 mouse, plasma | subcutaneous, 0.3 mg/kg mRNA, MC3 LNP with hFGF21 mRNA, steroid/mRNA 2:3 | relative to: LNP without steroid | AUC(2-58 h) fold change | 1.2 fold |
| Cc1nc(C)c(C=[N+]([O-])C(C)(C)C)nc1C | Western blot, measured: TFAM | MPTP mouse model, substantia nigra cytosol | 10 mg/kg | – | increase in protein level | 7.73% |
| N[C@@H](CC(=O)O)C(=O)N1CCC[C@H]1C(=O)NCC(=O)NCC(=O)O | diketopiperazine formation, Arrhenius plot, ESI-MS | 1-propanol | 70, 80, 90 °C, 0.5% acetic acid | – | ΔG‡ at 298.15 K | 22.2 ± 0.239 kcal/mol |
| Cc1cc(N)c2cc(NC(=O)C(=O)Nc3ccc4nc(C)cc(N)c4c3)ccc2n1 | – | mouse | intravenous, 16 mg/kg, with: fondaparinux 0.5 mg/kg s.c. | relative to: control | decrease in anti-FXa activity | 93 ± 2.8% |
| CC[C@H](C)[C@@H]1NC(=O)[C@H](Cc2ccc(O)cc2)NC(=O)[C@@H](N)CSSC[C@@H](C(=O)N2CCC[C@H]2C(=O)N[C@@H](CCCCNC(=O)COCCOCCNC(=O)COCCOCCNC(=O)CC[C@H](NC(=O)CC[C@H](NC(=O)CCCCCCCCCCCCCCCCC(=O)O)C(=O)O)C(=O)O)C(=O)NCC(N)=O)NC(=O)[C@H](CC(N)=O)NC(=O)[C@H](CCC(N)=O)NC1=O | – | C57BL/6 mice, diet-induced obese | subcutaneous, 2 µmol/kg daily | – | onset of significant weight loss | 1 days |
| CC1OC(Oc2c(-c3ccc(O)cc3)oc3cc(O)cc(O)c3c2=O)C(OC(=O)C=Cc2ccc(O)cc2)C(O)C1OC(=O)C=Cc1ccc(O)cc1 (stereo not drawn) | flow cytometry | mouse C57BL/6, orthotopic Hepa1-6, tumour | dose not given | – | decrease of macrophages | 43% |
| COc1ccc2nc(C)ccc2c1Nc1sn(C)c(=O)c1C#N | tail sensory nerve conduction | mouse, paclitaxel neuropathy model | oral, 300 mg/kg daily, 15 days post-paclitaxel, with: paclitaxel | relative to: vehicle | protection of SNAP amplitude | 23.1 ± 7.3% |
| C=C(c1cc(F)c(C(=O)O)c(F)c1)c1cc2c(cc1C)C(C)(C)CCC2(C)C | RNA sequencing, measured: Mta2 | rat, brain | dose not given, 24 h | relative to: vehicle | log2 fold change | 1.88 |
| CCCCC1NC(=O)c2ccccc21 (racemic) | – | rat cerebral ischaemia-reperfusion, cerebral cortex | 50 mg/kg, 24 h after reperfusion | – | MDA content | 2.23 nmol/mg |
| CC1CCCN(CCCNC(=O)C2=Cc3sc4c(c3CS2)CCCC4)C1 (stereo not drawn) | immunohistochemistry | HCT-116-GFP xenograft, NCr nude mice, tumour | intratumoral, 3 mg/kg | – | cleaved caspase-3 level | increased |

Some of these lines once more:
| Structure (SMILES) | assay | test system | conditions | how to read | endpoint | value |
| --- | --- | --- | --- | --- | --- | --- |
| CC(=O)N[C@@H](CC(N)=O)C(=O)NCC(=O)N[C@@H](CCCNC(=N)N)C(=O)N[C@@H](C)C(N)=O | 1H NMR | sodium phosphate buffer 50 mM | pH 7.4, 55 °C | – | rate constant succinimide to β-Asp | 5.83 h⁻¹ |
| NC(=O)CC[C@H](N)C(=O)N1CCC[C@H]1C(=O)NCC(=O)NCC(=O)O | diketopiperazine formation, Arrhenius plot, ESI-MS | 1-propanol | 70, 80, 90 °C, 0.5% acetic acid | – | ΔG‡ at 298.15 K | 22 ± 2.63 kcal/mol |
| COc1ccc2c(c1)c(CC(=O)OCOC(C)=O)c(C)n2C(=O)c1ccc(Cl)cc1 | hot plate test | BALB/c mice | 50 mg/kg, 0 min | – | latency of nociceptive response | 9.02 ± 0.44 s |
| CC1CCCN(CCCNC(=O)C2=Cc3sc4c(c3CS2)CCCC4)C1 (stereo not drawn) | immunohistochemistry | HCT-116-GFP xenograft, NCr nude mice, tumour | intratumoral, 3 mg/kg | – | cleaved caspase-3 level | increased |
